Literature values that unrelated publications cite.
Lines come from different studies, so protocols differ. ± gives the spread as reported. ≈ marks a conversion by molar mass, not a printed value.

| Structure (SMILES) | assay | system | conditions | scale | quantity | result |
| --- | --- | --- | --- | --- | --- | --- |
| Cc1cnc(NC(=O)C2=C(O)c3ccccc3S(=O)(=O)N2C)s1 |  | water |  |  | solubility | < 1 mg/mL |
| CC1=C(CC(=O)O)c2cc(F)ccc2/C1=C\c1ccc([S+](C)[O-])cc1 (centres unmarked) |  | plasma | concentration not given, total, steady state |  | Cmax | 29800 nM |
| CCC1=C(CC)/C(=C/NC23CC4CC(CC(C4)C2)C3)N=C1c1ccc[nH]1 |  | human liver microsomes |  |  | t1/2 | > 1 h |
| CC[C@H](C)CCCCC(=O)N[C@@H](CCN)C(=O)N[C@H](C(=O)N[C@@H](CCN)C(=O)N[C@H]1CCNC(=O)[C@H]([C@@H](C)O)NC(=O)[C@H](CCN)NC(=O)[C@H](CCN)NC(=O)[C@H](CC(C)C)NC(=O)[C@@H](Cc2ccccc2)NC(=O)[C@H](CCN)NC1=O)[C@@H](C)O |  | healthy Chinese subjects | 0.75 mg/kg single dose |  | half-life | 5.44 ± 0.741 h |
| O=C1Nc2ccc(Cl)cc2[C@@](C#CC2CC2)(C(F)(F)F)O1 |  | human | dose not given |  | volume of distribution | 4 to 7 L/kg |
| CCCS(=O)(=O)Nc1ccc(F)c(C(=O)c2c[nH]c3ncc(-c4ccc(Cl)cc4)cc23)c1F |  | rat | intravenous, single dose |  | Vd | 0.211 L/kg |
| Cc1cn([C@H]2C=C[C@@H](CO)O2)c(=O)[nH]c1=O |  | human | 40 mg |  | oral bioavailability | 68 to 100% |
| CC(=O)c1c(C)c2cnc(Nc3ccc(N4CCNCC4)cn3)nc2n(C2CCCC2)c1=O |  | beagle dog female | 0.6 mg/kg |  | AUC(0-24 h) | 0.543 µg·h/mL |
| [11CH3]n1cc(C2=C(c3ccc(Cl)cc3Cl)C(=O)NC2=O)c2ccccc21 | PET | mice |  |  | initial brain uptake | 2.5 SUV |
| CC1=C(/C=C/C(C)=C/C=C/C(C)=C\C(=O)O)C(C)(C)CCC1 |  | FaSSIF | literature value |  | solubility | 0.0511 mg/mL (≈ 170 µM) |
| Cn1c(Cn2ccc(C(F)(F)F)c(Oc3cc(Cl)cc(C#N)c3)c2=O)n[nH]c1=O |  | human, urine | single 50 mg |  | dose excreted unchanged | 6% |
| Nc1ccn([C@@H]2O[C@H](CO)[C@@H](O)C2(F)F)c(=O)n1 |  | metastatic pancreatic cancer patients | dose not given |  | grade 3 or higher weakness | 7% |
| CCCOc1ccc(S(=O)(=O)N2CCN(CCO)CC2)cc1-c1nc2c(CCC)cn(CC)c2c(=O)[nH]1 |  | healthy male volunteers | dose not given, without alcohol |  | diastolic blood pressure change | -6.4 mmHg |
| C[C@H](CS)C(=O)N1CCC[C@H]1C(=O)O |  | human |  |  | free Cmax | 1460 nM |
| C[C@@H](c1ncncc1F)[C@](O)(Cn1cncn1)c1ccc(F)cc1F |  | water |  |  | solubility | < 1 mg/mL |
| CC(=O)O[C@H]1C(=O)[C@@]2(C)[C@H]([C@H](OC(=O)c3ccccc3)[C@]3(O)C[C@H](OC(=O)[C@H](O)[C@@H](NC(=O)c4ccccc4)c4ccccc4)C(C)=C1C3(C)C)[C@]1(OC(C)=O)CO[C@@H]1C[C@@H]2O |  | advanced urothelial cancer patients | 80 mg/m2 weekly, monotherapy |  | grade 4 peripheral neuropathy incidence | 0% |
| O=C(O)C(F)(F)F | potentiometry |  |  |  | pKa | 0.3 |
| O=C1Nc2ccc(Cl)cc2[C@@](C#CC2CC2)(C(F)(F)F)O1 |  | human |  |  | Vd | 300 to 500 L |
| O=c1[nH]ncn1-c1ccc(N2CCN(c3ccc(OCC4COC(Cn5cncn5)(c5ccc(Cl)cc5Cl)O4)cc3)CC2)cc1 (centres unmarked) |  |  |  |  | pKa (basic) | 3.7 |
| Cc1cn([C@@H]2C[C@@H](O)[C@H](CO)O2)c(=O)[nH]c1=O |  | human | 600 mg |  | oral bioavailability | 68% |

| Structure (SMILES) | assay | system | conditions | scale | quantity | result |
| --- | --- | --- | --- | --- | --- | --- |
| NS(=O)(=O)Cc1noc2ccccc12 |  | water |  |  | solubility | < 1 mg/mL |
| C#C[C@]1(OC(C)=O)CC[C@H]2[C@@H]3CCC4=CC(=NO)CC[C@@H]4[C@H]3CC[C@@]21CC (mixture of isomers) |  | human, fasted | 0.25 mg, single dose, reference formulation |  | Cmax, geometric mean | 0.0472 ng/mL |
| CNCc1cc(-c2ccccc2F)n(S(=O)(=O)c2cccnc2)c1 |  | human, plasma | 40 mg multiple dose, observed clinical data |  | Ctrough | 4.49 ng/mL |
| Cc1nc(Nc2ncc(C(=O)Nc3c(C)cccc3Cl)s2)cc(N2CCN(CCO)CC2)n1 |  | water |  |  | solubility | < 1 mg/mL |
| N#C[C@@]1(c2ccc3c(N)ncnn23)O[C@H](CO)[C@@H](O)[C@H]1O |  | dog, plasma | intravenous, 2 mg/kg, 2 h, solution |  | plasma concentration | 949 ng/mL |
| CCCc1nc2c(C)cc(-c3nc4ccccc4n3C)cc2n1Cc1ccc(-c2ccccc2C(=O)O)cc1 |  | plasma | concentration not given, total, steady state |  | Cmax | 1200 nM |
| CS(=O)(=O)c1ccc(C(=O)Nc2ccc(Cl)c(-c3ccccn3)c2)c(Cl)c1 |  | FaSSIF | literature value |  | solubility | 0.003 mg/mL (≈ 7.12 µM) |
| CC[C@H](C)C(=O)O[C@H]1C[C@H](O)C=C2C=C[C@H](C)[C@H](CC[C@@H](O)C[C@@H](O)CC(=O)O)[C@H]21 |  | plasma |  |  | free Cmax | 60 nM |
| c1ccc2c(c1)ccc1ccccc12 | substrate | human liver microsomes |  |  | Km | 0.51 µM |
| NC(=O)c1cn(Cc2c(F)cccc2F)nn1 |  | water |  |  | solubility | < 1 mg/mL |
| Cc1cc(C)c(CNC(=O)c2cc(Cl)c3c(c2C)O[C@@](C)([C@H]2CC[C@H](N(C)C)CC2)O3)c(=O)[nH]1 |  | human | oral, 200 mg single dose, geometric mean |  | AUC(0-inf) | 10.3 µg·h/mL |
| CCCCc1nc(Cl)c(CO)n1Cc1ccc(-c2ccccc2-c2nn[nH]n2)cc1 |  | supercritical CO2 |  |  | crossover pressure | 190 to 210 bar |
| Cc1cn([C@H]2C[C@H](N=[N+]=[N-])[C@@H](CO)O2)c(=O)[nH]c1=O |  | mouse | 30 mg/kg |  | oral bioavailability | 82% |
| CCCCCCCCCCCCCCCC(=O)NCCO |  | rat liver homogenate |  |  | half-life | ~0.417 h |
| CC(C)Cc1ccc(C(C)C(=O)O)cc1 (centres unmarked) |  | human |  |  | free Cmax | 2960 nM |
| Fc1ccc([C@@H]2CCNC[C@H]2COc2ccc3c(c2)OCO3)cc1 |  | plasma |  |  | free Cmax | 1.18 nM |
| CO/N=C(\C(=O)N[C@@H]1C(=O)N2C(C(=O)O)=C(CSc3nc(=O)c(=O)[nH]n3C)CS[C@H]12)c1csc(N)n1 |  | human |  |  | free Cmax | 23200 nM |
| Cn1c(=O)c2c(ncn2C)n(C)c1=O |  | human | average of reported values |  | plasma clearance | 0.0756 L/h/kg |
| CCc1nn(CCCN2CCN(c3cccc(Cl)c3)CC2)c(=O)n1CCOc1ccccc1 |  | plasma | concentration not given, total, steady state |  | Cmax | 4840 nM |
| N#CCNC(=O)c1ccc(-c2ccnc(Nc3ccc(N4CCOCC4)cc3)n2)cc1 | refers to: compound | human, feces | oral, dose not given, single dose 14C-labelled | relative to: dose | excreted dose | 12.6% |

| Structure (SMILES) | assay | system | conditions | scale | quantity | result |
| --- | --- | --- | --- | --- | --- | --- |
| C[C@H]1CN(C2COC2)CCN1c1ccc(Nc2cc(-c3ccnc(N4CCn5c(cc6c5CC(C)(C)C6)C4=O)c3CO)cn(C)c2=O)nc1 |  | human | 200 mg once daily |  | AUC(0-last) | 2.05 µg·h/mL |
| CN(C)C(=N)N=C(N)N |  | human, liver failure patients |  |  | unbound fraction | 1 |
| C[Si](C)(C)O[Si](C)(C)O[Si](C)(C)C | slow-stirring method | 1-octanol/water | 25 °C |  | log KOW | 6.6 |
| CCCCc1oc2ccccc2c1C(=O)c1cc(I)c(OCCN(CC)CC)c(I)c1 |  | human | concentration not given, clinical |  | diarrhoea incidence | < 2% |
| CCc1cc2c(cc1CC)CC(NC[C@H](O)c1ccc(O)c3[nH]c(=O)ccc13)C2 |  | human, plasma | inhaled, dose not given |  | Clast | 0.036 nM |
| Nc1ccn([C@H]2CC[C@@H](CO)O2)c(=O)n1 |  | human | 0.5 mg/kg |  | oral bioavailability | 74% |
| Cc1cc(-c2nccc3c2ccn3CC(=O)Nc2ccc(-c3cnccn3)cn2)ccn1 |  | rat | oral, up to 200 mg/kg |  | respiratory function | no effect |
| COCCc1ccc(OC[C@@H](O)CNC(C)C)cc1 |  | human | oral, 100 mg single, enantiomer |  | AUCtau | 0.259 µg·h/mL |
| C[C@@H](O)[C@H]1C(=O)N2C(C(=O)O)=C(S[C@@H]3CN[C@H](C(=O)N(C)C)C3)[C@H](C)[C@H]12 | perpetrator, refers to: valproic acid | human | dose not given | relative to: without compound | half-life reduction | 80% |
| CNC(=O)c1c(C)oc2cc(Oc3ncnc4cc(OC)c(OC)cc34)ccc12 |  | human | phase I mass balance |  | dose fraction metabolised to M11 | ~7.25% |
| Nc1cccc2c1C(=O)N(C1CCC(=O)NC1=O)C2=O (centres unmarked) |  | relapsed refractory multiple myeloma patients | dose not given, grade up to 4 |  | incidence of grade 3 fatigue | 8% |
| O=C(CCC(C(=O)[O-])N1CCN(C(CCC(=O)NCC(O)CO)C(=O)[O-])Cc2cccc(n2)CN(C(CCC(=O)NCC(O)CO)C(=O)[O-])CC1)NCC(O)CO.[Gd+3] (centres unmarked) |  |  |  |  | dissociation half-life | 480 h |
| CCc1c(N(CC)C2CCOCC2)cc2oc(CN3CCCCC3)cc2c1C(=O)NCc1c(C)cc(C)[nH]c1=O |  | patients | dose not given |  | nausea incidence | 21% |
| CN(C)C(=O)c1cc2cnc(Nc3ccc(N4CCNCC4)cn3)nc2n1C1CCCC1 | refers to: leukopenia | advanced solid tumour or lymphoma patients | dose not given, 3 weeks on 1 week off, any grade | relative to: patients | adverse event incidence | 21.6% |
| CC(C)n1c(Nc2cccnc2)nc2cnc(Nc3ccc(N4CCN(C)CC4)cc3)nc21 |  | human relapsed or refractory AML | 20 to 310 mg/day, multiple doses |  | accumulation ratio of Cmax | 0.6 |
| C[C@@H](O[C@H]1OCCN(Cc2n[nH]c(=O)[nH]2)[C@H]1c1ccc(F)cc1)c1cc(C(F)(F)F)cc(C(F)(F)F)c1 |  | supercritical CO2 |  |  | crossover pressure | 150 to 180 bar |
| Nc1nc2cc(-c3ccc4ncc(C(=O)N5CCOCC5)n4c3)ccc2o1 |  | monkey |  |  | well tolerated dose | ≤ 50 mg/kg/day |
| Cc1c(-c2ccc(O)cc2)n(Cc2ccc(OCCN3CCCCCC3)cc2)c2ccc(O)cc12.Cl |  | water |  |  | solubility | < 1 mg/mL |
| CC(C)(CO)c1cc2cc(NC(=O)C3(c4ccc5c(c4)OC(F)(F)O5)CC3)c(F)cc2n1C[C@@H](O)CO |  | human |  |  | fraction unbound in enterocytes | 1 |

Repeated from above:
| Structure (SMILES) | assay | system | conditions | scale | quantity | result |
| --- | --- | --- | --- | --- | --- | --- |
| CCCCc1oc2ccccc2c1C(=O)c1cc(I)c(OCCN(CC)CC)c(I)c1 |  | human | concentration not given, clinical |  | diarrhoea incidence | < 2% |
| CCc1cc2c(cc1CC)CC(NC[C@H](O)c1ccc(O)c3[nH]c(=O)ccc13)C2 |  | human, plasma | inhaled, dose not given |  | Clast | 0.036 nM |
| Nc1ccn([C@H]2CC[C@@H](CO)O2)c(=O)n1 |  | human | 0.5 mg/kg |  | oral bioavailability | 74% |
| Cc1cc(-c2nccc3c2ccn3CC(=O)Nc2ccc(-c3cnccn3)cn2)ccn1 |  | rat | oral, up to 200 mg/kg |  | respiratory function | no effect |
| COCCc1ccc(OC[C@@H](O)CNC(C)C)cc1 |  | human | oral, 100 mg single, enantiomer |  | AUCtau | 0.259 µg·h/mL |
| C[C@@H](O)[C@H]1C(=O)N2C(C(=O)O)=C(S[C@@H]3CN[C@H](C(=O)N(C)C)C3)[C@H](C)[C@H]12 | perpetrator, refers to: valproic acid | human | dose not given | relative to: without compound | half-life reduction | 80% |
| CNC(=O)c1c(C)oc2cc(Oc3ncnc4cc(OC)c(OC)cc34)ccc12 |  | human | phase I mass balance |  | dose fraction metabolised to M11 | ~7.25% |
| Nc1cccc2c1C(=O)N(C1CCC(=O)NC1=O)C2=O (centres unmarked) |  | relapsed refractory multiple myeloma patients | dose not given, grade up to 4 |  | incidence of grade 3 fatigue | 8% |
| O=C(CCC(C(=O)[O-])N1CCN(C(CCC(=O)NCC(O)CO)C(=O)[O-])Cc2cccc(n2)CN(C(CCC(=O)NCC(O)CO)C(=O)[O-])CC1)NCC(O)CO.[Gd+3] (centres unmarked) |  |  |  |  | dissociation half-life | 480 h |
